# Measured values pooled from the literature.
# Chains of the proteins cited; added tags and fusions are not shown.
# UniProt P14902, whole entry: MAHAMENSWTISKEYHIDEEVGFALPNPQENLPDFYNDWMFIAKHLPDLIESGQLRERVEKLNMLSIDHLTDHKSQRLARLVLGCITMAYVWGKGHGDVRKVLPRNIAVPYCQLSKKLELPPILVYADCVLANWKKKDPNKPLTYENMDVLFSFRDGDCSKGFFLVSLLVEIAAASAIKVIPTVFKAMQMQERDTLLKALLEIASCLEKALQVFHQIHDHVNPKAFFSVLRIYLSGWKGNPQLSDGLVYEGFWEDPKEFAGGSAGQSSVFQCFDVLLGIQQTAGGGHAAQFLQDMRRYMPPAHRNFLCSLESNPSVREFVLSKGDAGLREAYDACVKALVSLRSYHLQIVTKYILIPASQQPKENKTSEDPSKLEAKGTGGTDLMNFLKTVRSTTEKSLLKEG
# UniProt P03372, whole entry: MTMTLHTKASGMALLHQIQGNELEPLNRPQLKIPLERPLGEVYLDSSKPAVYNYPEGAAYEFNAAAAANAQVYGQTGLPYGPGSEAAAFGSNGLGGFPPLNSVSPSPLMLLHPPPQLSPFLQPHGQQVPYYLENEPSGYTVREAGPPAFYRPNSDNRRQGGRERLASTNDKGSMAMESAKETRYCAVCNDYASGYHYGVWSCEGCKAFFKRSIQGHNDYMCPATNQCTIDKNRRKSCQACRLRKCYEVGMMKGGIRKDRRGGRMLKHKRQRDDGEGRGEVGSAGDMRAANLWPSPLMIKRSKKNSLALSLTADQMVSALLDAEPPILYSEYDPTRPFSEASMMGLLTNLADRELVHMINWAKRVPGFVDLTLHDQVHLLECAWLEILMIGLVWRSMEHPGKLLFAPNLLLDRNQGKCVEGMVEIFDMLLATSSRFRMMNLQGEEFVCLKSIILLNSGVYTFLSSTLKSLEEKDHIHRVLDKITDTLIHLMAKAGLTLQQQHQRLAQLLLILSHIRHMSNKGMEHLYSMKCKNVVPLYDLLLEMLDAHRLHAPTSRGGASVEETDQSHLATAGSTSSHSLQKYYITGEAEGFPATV
# UniProt P45985, whole entry: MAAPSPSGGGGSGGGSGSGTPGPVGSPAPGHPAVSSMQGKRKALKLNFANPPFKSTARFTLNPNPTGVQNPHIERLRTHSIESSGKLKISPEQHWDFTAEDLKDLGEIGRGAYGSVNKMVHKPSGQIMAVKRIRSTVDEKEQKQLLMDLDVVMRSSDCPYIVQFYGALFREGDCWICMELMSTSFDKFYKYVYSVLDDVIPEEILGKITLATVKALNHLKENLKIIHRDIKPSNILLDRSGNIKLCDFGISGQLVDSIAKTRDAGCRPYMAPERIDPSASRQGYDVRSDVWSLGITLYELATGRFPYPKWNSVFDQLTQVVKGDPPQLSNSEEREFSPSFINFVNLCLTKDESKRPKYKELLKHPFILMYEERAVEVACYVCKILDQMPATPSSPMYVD
# UniProt P07384, whole entry: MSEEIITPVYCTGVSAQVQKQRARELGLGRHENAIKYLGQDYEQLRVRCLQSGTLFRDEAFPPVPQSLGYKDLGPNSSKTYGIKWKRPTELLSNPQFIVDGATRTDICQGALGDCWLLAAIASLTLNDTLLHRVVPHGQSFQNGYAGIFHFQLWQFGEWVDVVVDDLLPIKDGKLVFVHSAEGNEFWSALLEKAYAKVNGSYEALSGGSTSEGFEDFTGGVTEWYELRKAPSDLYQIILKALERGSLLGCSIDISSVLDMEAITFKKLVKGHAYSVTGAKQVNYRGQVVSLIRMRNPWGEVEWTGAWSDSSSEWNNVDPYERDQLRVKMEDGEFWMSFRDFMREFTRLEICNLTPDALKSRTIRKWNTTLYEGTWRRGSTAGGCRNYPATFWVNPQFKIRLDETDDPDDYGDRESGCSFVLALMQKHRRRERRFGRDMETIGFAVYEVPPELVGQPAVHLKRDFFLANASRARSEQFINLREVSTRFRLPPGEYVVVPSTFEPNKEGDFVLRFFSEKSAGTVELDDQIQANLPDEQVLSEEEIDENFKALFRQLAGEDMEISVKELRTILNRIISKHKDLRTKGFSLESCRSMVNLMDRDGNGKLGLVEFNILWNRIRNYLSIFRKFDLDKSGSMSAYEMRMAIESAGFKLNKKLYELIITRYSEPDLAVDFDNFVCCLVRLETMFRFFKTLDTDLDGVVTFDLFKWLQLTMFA
# UniProt P00533, whole entry T790M/L858R, looked up: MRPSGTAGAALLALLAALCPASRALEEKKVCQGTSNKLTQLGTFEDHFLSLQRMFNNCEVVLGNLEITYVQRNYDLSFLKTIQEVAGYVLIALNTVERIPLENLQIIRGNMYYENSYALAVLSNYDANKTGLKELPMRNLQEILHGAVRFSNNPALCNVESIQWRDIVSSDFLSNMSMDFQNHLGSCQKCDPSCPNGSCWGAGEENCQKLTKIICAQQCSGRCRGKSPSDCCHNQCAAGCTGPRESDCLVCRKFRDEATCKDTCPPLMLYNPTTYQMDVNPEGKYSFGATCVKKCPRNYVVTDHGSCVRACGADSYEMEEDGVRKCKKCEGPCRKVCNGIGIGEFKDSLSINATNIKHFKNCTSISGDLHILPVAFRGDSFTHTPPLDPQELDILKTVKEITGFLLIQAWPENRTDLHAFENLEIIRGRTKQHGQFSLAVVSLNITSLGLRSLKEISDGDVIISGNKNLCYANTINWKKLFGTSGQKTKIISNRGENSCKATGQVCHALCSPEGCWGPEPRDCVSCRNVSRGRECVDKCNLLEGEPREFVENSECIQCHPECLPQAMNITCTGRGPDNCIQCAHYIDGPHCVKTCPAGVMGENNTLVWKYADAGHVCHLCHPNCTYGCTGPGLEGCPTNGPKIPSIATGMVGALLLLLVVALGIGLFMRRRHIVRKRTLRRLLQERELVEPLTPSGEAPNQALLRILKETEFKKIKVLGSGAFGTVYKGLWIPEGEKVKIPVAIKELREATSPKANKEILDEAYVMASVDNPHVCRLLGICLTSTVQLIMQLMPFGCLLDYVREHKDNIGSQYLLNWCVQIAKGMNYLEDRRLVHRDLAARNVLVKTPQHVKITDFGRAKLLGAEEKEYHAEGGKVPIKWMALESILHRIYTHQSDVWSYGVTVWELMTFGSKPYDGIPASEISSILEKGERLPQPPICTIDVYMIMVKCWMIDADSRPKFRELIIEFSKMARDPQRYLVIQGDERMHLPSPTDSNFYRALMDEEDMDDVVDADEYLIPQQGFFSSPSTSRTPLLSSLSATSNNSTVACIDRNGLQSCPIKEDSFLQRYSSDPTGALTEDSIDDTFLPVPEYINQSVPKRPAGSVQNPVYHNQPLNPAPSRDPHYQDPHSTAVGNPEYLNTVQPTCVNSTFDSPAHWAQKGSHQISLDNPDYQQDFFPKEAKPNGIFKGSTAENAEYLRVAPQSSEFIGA
# UniProt Q99436, whole entry, looked up: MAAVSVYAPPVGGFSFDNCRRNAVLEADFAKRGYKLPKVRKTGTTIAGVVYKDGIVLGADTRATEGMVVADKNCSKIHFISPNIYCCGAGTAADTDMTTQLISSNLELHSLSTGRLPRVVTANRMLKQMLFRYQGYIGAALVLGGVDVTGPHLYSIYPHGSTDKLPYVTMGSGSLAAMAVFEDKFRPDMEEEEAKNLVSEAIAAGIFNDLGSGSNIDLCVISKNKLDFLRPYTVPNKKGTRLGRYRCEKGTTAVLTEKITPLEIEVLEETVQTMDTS
# UniProt Q9NV35, whole entry: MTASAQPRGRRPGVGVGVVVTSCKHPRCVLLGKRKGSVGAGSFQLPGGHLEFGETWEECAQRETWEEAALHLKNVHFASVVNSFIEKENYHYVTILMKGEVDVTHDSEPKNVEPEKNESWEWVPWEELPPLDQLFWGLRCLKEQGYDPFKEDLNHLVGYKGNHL
# UniProt Q9UBN7, whole entry: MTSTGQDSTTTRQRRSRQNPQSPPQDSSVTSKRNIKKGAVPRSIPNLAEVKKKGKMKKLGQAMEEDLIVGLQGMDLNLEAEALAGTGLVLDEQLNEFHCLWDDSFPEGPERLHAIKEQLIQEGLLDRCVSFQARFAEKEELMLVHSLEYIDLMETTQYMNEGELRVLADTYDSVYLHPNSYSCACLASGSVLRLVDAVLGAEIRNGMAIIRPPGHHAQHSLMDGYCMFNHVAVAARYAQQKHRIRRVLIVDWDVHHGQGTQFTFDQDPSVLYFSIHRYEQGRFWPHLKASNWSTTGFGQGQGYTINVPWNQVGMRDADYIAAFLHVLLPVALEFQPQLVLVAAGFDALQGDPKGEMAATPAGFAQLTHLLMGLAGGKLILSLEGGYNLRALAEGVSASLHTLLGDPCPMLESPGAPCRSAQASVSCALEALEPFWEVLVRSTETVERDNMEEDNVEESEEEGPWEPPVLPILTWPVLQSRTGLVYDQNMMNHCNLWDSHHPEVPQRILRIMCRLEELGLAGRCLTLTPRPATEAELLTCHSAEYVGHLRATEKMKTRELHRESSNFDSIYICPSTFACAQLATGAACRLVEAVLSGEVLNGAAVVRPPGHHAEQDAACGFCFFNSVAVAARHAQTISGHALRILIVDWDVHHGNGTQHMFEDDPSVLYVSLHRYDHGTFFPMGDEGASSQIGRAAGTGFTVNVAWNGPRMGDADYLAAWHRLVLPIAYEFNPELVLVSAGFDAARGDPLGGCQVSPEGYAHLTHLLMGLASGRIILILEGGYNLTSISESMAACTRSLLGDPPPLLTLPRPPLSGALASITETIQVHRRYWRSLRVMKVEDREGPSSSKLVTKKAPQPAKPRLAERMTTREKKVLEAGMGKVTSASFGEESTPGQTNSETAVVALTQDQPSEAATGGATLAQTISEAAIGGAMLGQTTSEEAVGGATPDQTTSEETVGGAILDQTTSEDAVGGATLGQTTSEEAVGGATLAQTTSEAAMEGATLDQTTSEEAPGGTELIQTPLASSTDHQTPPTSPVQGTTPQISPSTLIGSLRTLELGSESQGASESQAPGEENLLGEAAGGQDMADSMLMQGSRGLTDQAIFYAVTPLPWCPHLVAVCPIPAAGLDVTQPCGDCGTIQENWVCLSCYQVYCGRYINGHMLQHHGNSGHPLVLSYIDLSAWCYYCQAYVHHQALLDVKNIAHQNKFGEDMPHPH
# UniProt O95835, whole entry: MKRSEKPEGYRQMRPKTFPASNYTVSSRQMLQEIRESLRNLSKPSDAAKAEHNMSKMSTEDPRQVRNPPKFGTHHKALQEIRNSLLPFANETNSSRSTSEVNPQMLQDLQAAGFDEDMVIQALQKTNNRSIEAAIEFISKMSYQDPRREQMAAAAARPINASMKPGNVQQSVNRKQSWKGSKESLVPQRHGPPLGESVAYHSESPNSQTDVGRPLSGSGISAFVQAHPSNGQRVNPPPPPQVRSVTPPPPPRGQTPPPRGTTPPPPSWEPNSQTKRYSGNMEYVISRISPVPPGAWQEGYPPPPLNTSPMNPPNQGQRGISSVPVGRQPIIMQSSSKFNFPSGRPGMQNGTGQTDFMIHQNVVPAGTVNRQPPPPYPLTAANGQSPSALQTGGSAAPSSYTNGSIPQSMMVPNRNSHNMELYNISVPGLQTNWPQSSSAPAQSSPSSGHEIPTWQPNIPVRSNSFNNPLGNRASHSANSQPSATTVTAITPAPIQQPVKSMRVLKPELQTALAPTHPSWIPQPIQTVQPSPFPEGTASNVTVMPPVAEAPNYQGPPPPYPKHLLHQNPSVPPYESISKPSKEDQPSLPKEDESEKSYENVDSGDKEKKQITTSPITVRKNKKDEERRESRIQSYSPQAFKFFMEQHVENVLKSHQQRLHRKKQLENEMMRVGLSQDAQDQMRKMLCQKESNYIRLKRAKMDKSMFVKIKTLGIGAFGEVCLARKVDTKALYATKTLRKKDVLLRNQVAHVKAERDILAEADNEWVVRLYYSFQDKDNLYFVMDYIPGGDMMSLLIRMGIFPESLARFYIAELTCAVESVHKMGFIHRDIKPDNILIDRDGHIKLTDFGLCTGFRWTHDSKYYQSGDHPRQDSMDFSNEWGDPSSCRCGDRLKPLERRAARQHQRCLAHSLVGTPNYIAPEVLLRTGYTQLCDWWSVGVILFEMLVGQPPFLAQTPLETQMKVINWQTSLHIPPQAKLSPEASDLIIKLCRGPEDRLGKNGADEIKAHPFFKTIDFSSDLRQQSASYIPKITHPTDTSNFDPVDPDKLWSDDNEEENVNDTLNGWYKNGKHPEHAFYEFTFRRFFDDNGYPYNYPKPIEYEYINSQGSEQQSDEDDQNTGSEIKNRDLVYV
# UniProt O14757, whole entry: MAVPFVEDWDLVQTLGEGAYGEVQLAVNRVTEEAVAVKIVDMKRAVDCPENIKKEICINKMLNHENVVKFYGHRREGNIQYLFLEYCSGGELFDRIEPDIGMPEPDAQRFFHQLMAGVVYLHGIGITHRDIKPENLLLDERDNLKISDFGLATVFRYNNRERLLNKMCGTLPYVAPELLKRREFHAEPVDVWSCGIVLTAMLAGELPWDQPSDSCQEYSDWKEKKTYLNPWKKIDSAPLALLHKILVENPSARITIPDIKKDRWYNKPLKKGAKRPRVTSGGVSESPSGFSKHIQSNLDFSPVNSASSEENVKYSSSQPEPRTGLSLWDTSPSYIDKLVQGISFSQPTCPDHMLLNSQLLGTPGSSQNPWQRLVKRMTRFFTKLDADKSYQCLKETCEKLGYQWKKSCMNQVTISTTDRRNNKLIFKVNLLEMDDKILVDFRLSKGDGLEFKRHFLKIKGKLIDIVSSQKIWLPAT
# Protocols differ between the studies behind these lines. ± marks the error that the study gave.
# Moesin with CD44: Moesin, with CD44 (Homo sapiens, UniProt P26038)
# IDO1: Indoleamine 2,3-dioxygenase 1 (IDO1, Homo sapiens, UniProt P14902)
# ESR1: Estrogen receptor (ESR1, Homo sapiens, UniProt P03372)
SMILES,target,test,system,conditions,how to read,IC50 [µM]
O=C(Nc1ccc(-c2nc3ccccc3[nH]2)cc1)C1CCCC1,Moesin with CD44,"MSN-CD44 interaction, inhibitor, TR-FRET",,added: CD44,,> 100
CC(C)OC(=O)OCOC(=O)CCC(CP(=O)(O)O)C(=O)O (centres unmarked),"FOLH1 (Homo sapiens, UniProt Q04609)","inhibitor, radioenzymatic",,added: tritiated NAAG substrate,,0.001 ± 0.0001
Cc1nc2ccccn2c1-c1ccnc(SCC(=O)Nc2ccc(C(C)C)cc2)n1,"ALK (Homo sapiens, UniProt Q9UM73)",ELISA,,,,20
O=C(Nc1ccc(Cl)cc1)C(NS(=O)(=O)c1ccc(Br)cc1)c1ccccc1 (centres unmarked),"Uracil nucleotide/cysteinyl leukotriene receptor, long isoform (GPR17, Homo sapiens, UniProt Q13304)","calcium mobilization, antagonist",1321-N1,,,17.9 ± 0.34
COc1ccc(Nc2c(C(=O)O)ccnc2C(=O)O)cc1,"KDM4E (Homo sapiens, UniProt B2RXH2)","inhibitor, FDH-coupled spectrophotometry, item: formaldehyde",,,,164
COc1ccc2[nH]cc(/C=C/c3cccc(F)c3)c2c1,IDO1,"enzyme activity, inhibitor",,,,3.1
NCCCSc1c2ccccc2nc2ccccc12,"HASPIN (Homo sapiens, UniProt Q8TF76)","inhibitor, TR-FRET",,added: histone H3 peptide,,9.8
Cn1cnc(S(=O)(=O)N2C[C@@H]3[C@H](C2)[C@@]3(CNC(=O)c2ccccc2Cl)CC2CC2)c1 (relative stereo),"SLC6A9 (Homo sapiens, UniProt P48067)","glycine uptake, inhibitor, [14C]glycine uptake",cells expressing target,,,0.019
COc1ccc(C(CCc2ccc(O)cc2OC)c2cc(CCC(=O)c3ccc(O)cc3)c(OC)cc2O)cc1 (racemic),"ALOX5 (Homo sapiens, UniProt P09917)","5-LOX product formation, RP-HPLC",human PMNL,added: A23187 and arachidonic acid,,0.85 ± 0.15
O=C(Nc1ccc(-c2nc3ccccc3s2)cc1)c1cccc([N+](=O)[O-])c1,Moesin with CD44,"MSN-CD44 interaction, inhibitor, TR-FRET",,added: CD44,,> 100
COc1cc(Nc2ncnc(-c3cccnc3Nc3cc(NC(=O)c4cccc(C(F)(F)F)c4)ccc3C)n2)cc(OC)c1OC,"HCK (Homo sapiens, UniProt P08631)",enzyme activity,,,,0.01 ± 0.003
CC(C)(C)OC(=O)n1nc(-c2ccc(O)cc2)c2cc(C(F)(F)F)ccc21,"MAP2K4 (Homo sapiens, UniProt P45985)","enzyme activity, ADP-Glo",,added: p38α substrate,,> 20
CCNC(=O)C(=O)[C@H](Cc1ccccc1)NC(=O)[C@H]1CCC(=O)N1Cc1ccccc1,"CAPN1 (Homo sapiens, UniProt P07384)","enzyme activity, inhibitor",,,,0.27 ± 0.03
Nc1ccc(Cl)c2cccnc12,"METAP1 (Homo sapiens, UniProt P53582)","enzyme activity, inhibitor",,,,> 40
Fc1ccc2[nH]cc(/C=C/c3ccncc3)c2c1,IDO1,"enzyme activity, inhibitor",,,,16.5
O=C(Cn1c(-c2cscn2)nc2ccccc21)Nc1ccc(Br)cc1,"IMPDH2 (Homo sapiens, UniProt P12268)","enzyme activity, inhibitor",,,lower bound,≥ 20
C=CC(=O)Nc1cc(Nc2ncnc(Nc3ccccc3F)n2)c(OC)cc1N(C)CCN(C)C,"EGFR (Homo sapiens, UniProt P00533, L858R/T790M)","EGFR phosphorylation, inhibitor, MSD, item: phospho-EGFR",NCI-H1975 (EGFR L858R/T790M),,,0.0039
COC(=O)/C(=C/c1c[nH]c2ccc(C#N)cc12)c1ccc(F)cc1,IDO1,"enzyme activity, inhibitor",,,,> 50
CC(C)NC(=O)CSc1nc2ccc(NC(=O)CSc3ccc4ccccc4c3)cc2s1,ESR1,"reporter gene, antagonist",HEC-1 transfected ERα luciferase reporter,,,10
CS(=O)(=O)Nc1ccc(/C=C/c2c[nH]c3ccc(C#N)cc23)cc1,IDO1,"enzyme activity, inhibitor",,,,> 50
O=C(OC(C(F)(F)F)C(F)(F)F)N1CCc2c(cccc2-c2ccccc2)C1,"ABHD6 (Homo sapiens, UniProt Q9BV23)","inhibitor, fluorescence",,,,0.049 ± 0.0026
COC(=O)C1(C)C=C(C(=O)Nc2cccc(C(=O)Nc3ccc(Nc4nccc(-c5cccnc5)n4)c(C)c3)c2)C(=O)C1 (centres unmarked),"MAPK8 (Homo sapiens, UniProt P45983)",enzyme activity,,added: glutathione 10 mM,,0.037 ± 0.004
CC(C)NC(=O)CSc1nc2ccc(NC(=O)CSc3cccc(Cl)c3)cc2s1,ESR1,"reporter gene, antagonist",HEC-1 cells transfected with ERα,added: estradiol 100 nM,,3.6
O=C1OC2CC1N(C(=O)c1cc(Cc3n[nH]c(=O)c4ccccc34)ccc1F)C2 (centres unmarked),"PARP1 (Homo sapiens, UniProt P09874)",enzyme activity,,,,< 1
CNC(=O)CSc1nc(-c2ccc(Cl)cc2)cc(C(F)(F)F)c1C#N,"TAAR1 (Homo sapiens, UniProt Q96RJ0)",,,,,0.985
CN1CCC[C@@H]1C(=O)N[C@@H](Cc1ccc(-c2ccccn2)cc1)B(O)O,"Proteasome subunit beta type-3/PSMB7, trypsin-like site (Homo sapiens, UniProt P49720+Q99436)","β2c enzyme activity, inhibitor",,added: Ac-KQL-AMC,,> 10
O=c1[nH]c2ccc(S(=O)(=O)N3CCN(Cc4ccc5[nH]ccc5c4)CC3)cc2o1,"NUDT15 (Homo sapiens, UniProt Q9NV35)","enzyme activity, inhibitor, malachite green",,added: dGTP,,0.219
Nc1ccc([N+](=O)[O-])cc1-c1nc2ccccc2[nH]c1=O,"Protein diaphanous homolog 1, FH2 domain (Diaph1, Mus musculus, UniProt O08808)","actin assembly, inhibitor, pyrene-actin polymerization",,,,2.6
NC(=O)c1cn(-c2ccc(F)cc2)c2ccc(CCc3cccnc3)cc2c1=O,"Grm2 (Rattus norvegicus, UniProt P31421)","calcium mobilization, negative allosteric modulator",,,,0.466
Cc1ccc2oc(-c3c4c(N)n[nH]c(=O)c4nn3-c3ccc(F)cc3)c(C)c2c1,"FGFR1 (Homo sapiens, UniProt P11362)","kinase activity, inhibitor, ELISA",,,,0.0501 ± 0.0218
N#Cc1cnc(Nc2nc3ccccc3o2)nc1-c1cccc2ccccc12,"Grm5 (Rattus norvegicus, UniProt P31424)","calcium mobilization, negative allosteric modulator",,added: glutamate EC80,,> 10
CCOC(=O)COC(=O)[C@@H]1C(C=O)=Cc2cc3c(cc2[C@H]1c1cc(OC)c(OC)c(OC)c1)OCO3,"Tubulin alpha/beta heterodimer (Leishmania infantum, UniProt A0A381MCS3+A4HTR0)","tubulin polymerization, inhibitor",,"37 °C, added: tubulin 1.2 mg/mL",,0.9 ± 0.1
CC(C)Oc1cc(C(=O)N2CCC(N3CCN(C)CC3)CC2)ccc1Nc1ncc2c(n1)N(C(C)C)c1ccccc1C(=O)N2C,"MAPK7 (Homo sapiens, UniProt Q13164)",kinase activity,,,,0.421 ± 0.007
Cc1ccc(-c2cc(CF)nn2-c2ccc(S(C)(=O)=O)cc2)cc1,"PTGS2 (Homo sapiens, UniProt P35354)",inhibitor,,concentration not given,,0.6
O=C(c1ccc(O)c(Cl)c1)N1Cc2ccccc2C1,"HSP90AA1 (Homo sapiens, UniProt P07900)","binding, fluorescence polarization",,added: FITC-geldanamycin tracer,,4.69 ± 0.27
CCOc1ccc(S(=O)(=O)NC(=O)Cc2ccc(C(F)(F)F)cc2)cc1Br,"CGAS (Homo sapiens, UniProt Q8N884)","enzyme activity, inhibitor, Kinase-Glo ATP depletion",,"25 °C, 100 nM enzyme",,31.1
Cc1ccc(NC(=O)c2ccc(CN3CCC(N(C)C)C3)c(C(F)(F)F)c2)cc1N1Cc2cnc(Nc3cnn(C)c3)nc2N(C)C1=O (centres unmarked),"FGFR4 (Homo sapiens, UniProt P22455)","enzyme activity, inhibitor, radiometric kinase",,,,< 0.001
CN1CC[C@H](c2c(O)cc(O)c3c(=O)cc(-c4ccccc4F)oc23)[C@H](O)C1,"PRKACA (Homo sapiens, UniProt P17612)",,,ATP at Km,,> 10
FC(F)(F)c1cccc(CCN2CCN(c3cc(N4CCCC4)nc(N4CCCC4)n3)CC2)c1,"Caspase-1 (CASP1, Homo sapiens, UniProt P29466)","enzyme activity, inhibitor",,"30 min preincubation, added: Ac-WEHD-AMC 10 µM",,0.188 ± 0.027
O=C(NO)c1c(F)ccc(F)c1F,"HDAC6 (Homo sapiens, UniProt Q9UBN7)","enzyme activity, inhibitor, electrophoretic mobility shift",,added: FAM-RHKK(Ac)-NH2 1 µM,,> 30
C[C@H](NC(=O)c1cc(C(=O)O)cc([C@H]2CCN[C@@H]2C(=O)O)c1)C(=O)O,"Glutamate receptor ionotropic, NMDA 2A, with GluN1 (Grin2a, Rattus norvegicus, UniProt Q00959)","ion current, antagonist, two-electrode voltage clamp",Xenopus oocytes,"GluN1/GluN2A, added: glycine 100 µM and glutamate 1 µM",,1.64 ± 0.07
Cc1n[nH]c(C)c1-c1ccc(C2(c3ccc(Cl)cc3)CCNCC2)cc1,"LATS1 (Homo sapiens, UniProt O95835)","kinase activity, inhibitor, radiometric HotSpot",,added: ATP 10 µM,,0.52
O=C(O)c1cc(C(=O)N[C@@H](Cc2c[nH]c3ccccc23)C(=O)O)cc([C@H]2CCN[C@@H]2C(=O)O)c1,kainate receptor (rat),"binding, radioligand binding",rat cortical synaptosomes,added: [3H]kainate,,10 to 50
O=C(CSc1ccccc1C(F)(F)F)Nc1ccc2nc(SCC(=O)NC3CC3)sc2c1,ESR1,"reporter gene, antagonist",HEC-1 transfected ERα luciferase reporter,,,6.3
O=C(NCc1ccc(-c2cnco2)cc1)[C@@H]1C[C@@H](O)CN1C(=O)c1cccc(O)c1,"von Hippel-Lindau disease tumor suppressor, with elongin B, C (VHL, Homo sapiens, UniProt P40337)","binding, fluorescence polarization",,"1% DMSO, added: FAM-HIF1α peptide tracer",,18 ± 0.4
CC(C)CNC(=O)CSc1nc2ccc(NC(=O)CSc3ccc(Cl)c(Cl)c3)cc2s1,ESR1,"reporter gene, antagonist",HEC-1 transfected ERα luciferase reporter,,,20 to 50
N#Cc1c2c(c(Sc3nnc(-c4ccccc4)n3-c3ccccc3)n3c1nc1ccccc13)CCC2,"ERO1-like protein alpha (Homo sapiens, UniProt Q96HE7)","enzyme activity, inhibitor, fluorescence",,,,9.6
NCc1ccc(C(=O)NOCc2ccc(C(F)(F)F)cc2)cc1,"SIRT6 (Homo sapiens, UniProt Q8N6T7)","deacetylase activity, inhibitor, fluorogenic",,added: RHKK-ac-AMC,,3.07 ± 0.14
CC(=NNC(=N)N)c1ccc(NC(=O)c2c[nH]c3ccccc23)cc1,"CHEK1 (Homo sapiens, UniProt O14757)","kinase activity, inhibitor, IMAP fluorescence polarisation",,60 min,,> 100
N#Cc1ccc2[nH]cc(/C=C/c3ccc(CO)cc3)c2c1,"Amyloid-beta precursor protein, amyloid-beta peptide (APP, Homo sapiens, UniProt P05067)","Aβ42 oligomerisation, ELISA",,,,> 20
CC(=O)Nc1cc(Nc2cc(NC3CC3)n3ncc(C#N)c3n2)ccc1N1CCOCC1,"CSNK2A2 (Homo sapiens, UniProt P19784)","target engagement, NanoBRET",HEK293,,,0.015
Clc1ccc(C2(c3ccc(-c4ccnc5ncccc45)cc3)CCNCC2)cc1,"AKT1 (Homo sapiens, UniProt P31749)","kinase activity, inhibitor, radiometric HotSpot",,added: ATP 10 µM,,> 10
O=C(Nc1ccc(-c2cccc3ncccc23)cc1)C1CCN(S(=O)(=O)c2ccccc2Cl)CC1,"Ephx2 (Rattus norvegicus, UniProt P80299)","enzyme activity, inhibitor, fluorescence",rat,"pH 7.4, 37 °C",,0.002
COc1ccc(NC(=O)N[C@@H](Cc2ccc(O)cc2)C(=O)NCC2(c3ccccc3)CC2)cc1,"FPR2 (Homo sapiens, UniProt P25090)",calcium mobilization,FPR2-transfected HL-60,"desensitization pretreatment, added: WKYMVM 5 nM",,9.8 ± 2.1
COc1cc2nccc(Nc3ccc(NC(=O)c4ccc(C(C)(C)C)cc4)c(O)c3)c2cc1OC,"PKN3 (Homo sapiens, UniProt Q6P5Z2)","binding, split-luciferase",,,,> 50
C[C@@H]1CN(C2CCC2)CC[C@H](O[C@H]2[C@@H](O)C[C@H](O[C@H]3[C@@H](O)C[C@H](O[C@H]4CC[C@@]5(C)[C@H](CC[C@@H]6[C@@H]5C[C@@H](O)[C@]5(C)[C@@H](C7=CC(=O)OC7)CC[C@]65O)C4)O[C@@H]3C)O[C@@H]2C)O1,"Sodium/potassium-transporting ATPase subunit alpha-3, with beta1 subunit (ATP1A3, Homo sapiens, UniProt P13637)","Na+/K+-ATPase activity, inhibitor",purified enzyme,,,0.068 ± 0.009

# For quick reference, copied from above:
SMILES,target,test,system,conditions,how to read,IC50 [µM]
NCc1ccc(C(=O)NOCc2ccc(C(F)(F)F)cc2)cc1,"SIRT6 (Homo sapiens, UniProt Q8N6T7)","deacetylase activity, inhibitor, fluorogenic",,added: RHKK-ac-AMC,,3.07 ± 0.14
CC(=NNC(=N)N)c1ccc(NC(=O)c2c[nH]c3ccccc23)cc1,"CHEK1 (Homo sapiens, UniProt O14757)","kinase activity, inhibitor, IMAP fluorescence polarisation",,60 min,,> 100
N#Cc1ccc2[nH]cc(/C=C/c3ccc(CO)cc3)c2c1,"Amyloid-beta precursor protein, amyloid-beta peptide (APP, Homo sapiens, UniProt P05067)","Aβ42 oligomerisation, ELISA",,,,> 20
CC(=O)Nc1cc(Nc2cc(NC3CC3)n3ncc(C#N)c3n2)ccc1N1CCOCC1,"CSNK2A2 (Homo sapiens, UniProt P19784)","target engagement, NanoBRET",HEK293,,,0.015
Clc1ccc(C2(c3ccc(-c4ccnc5ncccc45)cc3)CCNCC2)cc1,"AKT1 (Homo sapiens, UniProt P31749)","kinase activity, inhibitor, radiometric HotSpot",,added: ATP 10 µM,,> 10
